# Measured values of several laboratories.
# Lines come from different studies, so protocols differ. “And” joins repeats or separate records; there may be more than shown. Numbers after ± are the reported error.
Structure (SMILES),tested on,assay,system,conditions,how to read,endpoint,result
Cc1cc(OC(C)C)ccc1C(=O)C(C)(C)NC(=O)c1sccc1C,Rhynchosporium secalis,mycelial growth,PSA medium,20 °C,,EC50,0.91 µg/mL
COC(=O)[C@@H](NCc1cc2ccccc2nc1OCc1ccccc1)C(C)C,Pseudomonas aeruginosa,,,"8 µg/mL, without pentamidine",relative to: control,growth,95.5%
CC(=Nc1ccc(N=Cc2ccc[nH]2)cc1)N(C)C,Necator americanus,,infected hamsters,"oral, 12.5 mg/kg single dose, 49 days post infection",,worm burden reduction,44.9%
COC(=O)[C@H](Cc1c[nH]c2ccccc12)NCc1cc2ccccc2nc1SC,Pseudomonas aeruginosa,,,"128 µg/mL, without pentamidine",relative to: control,growth,102%
CN[C@H](CC(C)C)C(=O)N[C@H]1C(=O)N[C@@H](CC(N)=O)C(=O)N[C@H]2C(=O)N[C@H]3C(=O)N[C@H](C(=O)N[C@H](C(=O)O)c4cc(O)cc(O)c4-c4cc3ccc4O)[C@H](O)c3ccc(c(Cl)c3)Oc3cc2cc(c3O[C@@H]2O[C@H](CO)[C@@H](O)[C@H](O)[C@H]2O[C@H]2C[C@](C)(N)[C@H](O)[C@H](C)O2)Oc2ccc(cc2Cl)[C@H]1O,Streptococcus pneumoniae,,"penicillin-resistant, 10 isolates",serum 50%,,MIC50,0.5 µg/mL
O=C(/C=C/c1ccc(O)cc1)c1ccc(O)cc1O,OCI-Ly1,,,"0.1 µM, 120 h",,viability,197%
CC(C)n1ncc2c(C(=O)NCC3(C)CNC3)cc(C3CC3)nc21,Enterovirus D68,viral replication,"RD, recombinant wild-type US/MO/14-18947",1 µM,relative to: untreated,plaque area,0%
CC1=CC(=O)CC(C)(C)[C@@]1(O)/C=C/C(C)=C\C(=O)O,OCI-Ly1,,,"0.1 µM, 120 h",,viability,4.61%
N=C(N)c1ccc(OCc2ccc(Br)cc2COc2ccc(C(=N)N)cc2)cc1,Escherichia coli,,BW25113,"concentration not given, lowest-FICI combination, with: novobiocin",,MIC in combination,12.5 µg/mL
CC(=Nc1ccc(N=Cc2ccncc2)cc1)N(C)C,Necator americanus,,infected hamsters,"oral, 50 mg/kg single",relative to: untreated,worm burden reduction,96.7 ± 3.3%
CN[C@H](CC(C)C)C(=O)N[C@H]1C(=O)N[C@@H](CC(N)=O)C(=O)N[C@H]2C(=O)N[C@H]3C(=O)N[C@H](C(=O)N[C@H](C(=O)O)c4cc(O)cc(O)c4-c4cc3ccc4O)[C@H](O)c3ccc(c(Cl)c3)Oc3cc2cc(c3O[C@@H]2O[C@H](CO)[C@@H](O)[C@H](O)[C@H]2O[C@H]2C[C@](C)(N)[C@H](O)[C@H](C)O2)Oc2ccc(cc2Cl)[C@H]1O,Staphylococcus epidermidis,,"9397, female ICR mice, peritonitis, liver",dose not given,,bacterial load,4.84 log CFU and 5.86 log CFU and 5.31 log CFU and 5.19 log CFU and 5.54 log CFU and 5.08 log CFU
CC(=Nc1ccc(N=Cc2ccc3[nH]cnc3c2)cc1)N(C)C,Necator americanus,,infected hamsters,"oral, 50 mg/kg single",relative to: untreated,worm burden reduction,100%
Nc1nc(-c2ccccc2)nc2[nH]nc(Nc3ccc(C(F)(F)F)cc3)c12,coxsackievirus B3,,"31-1-93, NMRI mice, CVB3 chronic myocarditis","oral, 100 mg/kg twice daily, day 21, dosed days 1 to 7, score scale 0 to 7",direction not given,clinical score,0.11

# A few entries again:
Structure (SMILES),tested on,assay,system,conditions,how to read,endpoint,result
CC(C)n1ncc2c(C(=O)NCC3(C)CNC3)cc(C3CC3)nc21,Enterovirus D68,viral replication,"RD, recombinant wild-type US/MO/14-18947",1 µM,relative to: untreated,plaque area,0%
CC1=CC(=O)CC(C)(C)[C@@]1(O)/C=C/C(C)=C\C(=O)O,OCI-Ly1,,,"0.1 µM, 120 h",,viability,4.61%
